# Results of several laboratories.
# Parts stem from different laboratories: compare values within a part only.

# Series 1
# Target: RNA binding protein fox-1 homolog 2, RRM domain, GST-SBP tag (RBFOX2, Homo sapiens, UniProt O43251-10, residues 100-194)
# Technique: RNA Bind-n-Seq
# Molecule type: RNA
# Medium: in vitro
# Tested at: 365 nM
# Setting: natural RNA segment, single round, ends assumed
# Baseline: no-protein control
# Direction: higher = stronger binding
# Shared flanks, not repeated: GGGAGUUCUACAGUCCGACGAUC … UGGAAUUCUCGGGUGCCAA
# Target sequence (chain): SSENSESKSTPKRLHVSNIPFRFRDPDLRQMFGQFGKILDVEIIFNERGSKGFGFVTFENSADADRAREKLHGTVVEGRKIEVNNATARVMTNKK
Oligonucleotide,RBNS enrichment (R)
CCCUCUCACCCCAAAUGUGUAAUGGAAAAUUUUUAAUUAAGAAAAACUUCAGUUUUGCCAAGUGCAAUGGUGUUGCCUUCUUUAAAAAAUGCCGUUUUCUUACACUACCA,0.624
AAUAUAACAGUUAAUGAACUUGGAGUUUAAAUUGUGUACAUUUUUAAAUUGUAAGAUUUUUACUGUAUAUUGAAGCUUAGUGUGAUUCAAUAAAUUGCUUGUAAUUUAAA,0.692
CAGGUGUUCUGCAGGGUCUCUUCACAUGAAGCUGCCAAGCGUGAGUCAGCCCAUAAGCAAAGUCAAAUAACCCACGUGAGGACUGCUUUGUGUGUCUAACUCUCAGUUAU,0.403
UUUUCUACGUUGGAACGUGCCCCGGAAUGUGGCCGUCGGCACACUUCUCAGGACAAUGAAUCCUUCCUGUUUUUCUUUUUAUGCCACACAGUGCAUUGUUUUUCUACCUG,0.818
UUGUGGUUAGUUUGAAAAACAGACAUGGAUAAACUAAAAUGCUUCAUACUUUAUAAGUAAAGCGCUAUGAAUGCUGUGGAGACCAAGGUGAAAUAAAUAGUGCAAAUGUG,1.96
GAUCUCUUGCCAGUUGUGAAUAAGACAGAAAGACUGUGUUCUCUGUUACGUAAGAAGGGUCUUUGGUAGAAGAAAUUGCUCGUGUUUACACAGCUGUGGAUGCCAUGAAG,1.09
GGGGCAGCAGCCUGGCCUGUGCCAUGGUGGGUGUCCUGGGGCCUGUGCGGAGGGAGCCACCUCACCCUGCAGCCCAGUUUGCAGGUGUGGCCUUGUUUCUCCUUGCCCAG,0.248
UCAUUAAUGAUGGUGGAAGCAAGUGUAUUAUUUGUUUCCUGGAGAAUUUGAUGAAGAGCAGUCUUCCUCUGCUGCCCUUUACUAAGCAAAACCUGGAGCAAUUUAAAUAG,0.445
UGUCUGGAACAGGAAAGAGGUAUAGGUGCCUAUCCACUGCCACUCUGCACGACUGAAGGGCCAGGCGUAAAGAUGACUGACAGAAGUGUAGACUAGAGGAGAGGCUAGAG,0.399
AGCCUCCUGCCUACCCCACUCUCUGCCGCUCGGAGGCCCCAAAGGAAAAAGCACAAGAAGCGUGAGAGAUACCGCCAUUCCUGGAGACAAAGCCCACCUGCUCAUUCUCG,0.408
CUGCUCUGGCCAUGGCUGUGAAGGGCCCAGCCAGCUCCCUGUUUUGAUGUUCUGUGCAACAGCUCCGGGGUCUUGUGACUGGAGAUCCUCAACAGGCCCUGGAGCCAGGA,0.36
UUUUAGAGCCCCUGCUCUAGGAAACAGUUUAAGAAAUCAUUGGCCCCUUCCCAGCACAUUGAAUGGGUAAGCAGACAGGCCAUGAUUUAGUUGGCCAGCACUAACUCCAC,0.557

# Series 2
# Target: Interferon regulatory factor 5, full length, phosphomimetic (IRF5, Homo sapiens, UniProt Q13568-2, residues 1-514, S451D/S453D/S456D/S462D)
# Technique: protein-binding microarray
# Molecule type: double-stranded DNA, one strand shown
# Medium: in vitro
# Tested at: 940 nM top
# Setting: 60-bp whole probe
# Together with: salmon DNA 0.4 mg/ml
# Baseline: random background probes
# Direction: higher = stronger binding
# Shared flanks, not repeated: GCCTAGCAC … GTCTTGATTCGCTTGACGCTGCTG
Oligonucleotide,fitted relative affinity
GACGGTCCCGGACTGGGGACGTGCTAG,-0.793 z-score
TTAGGTTTCGGGTTCGGTTAGTGCTAG,10.1 z-score
GAATGTAACTCCTATCCAAGTGTGCTA,0.438 z-score
TCATGTGTATATATAATACTGTGCTAG,0.253 z-score
GTAGATCTCAGTCTCGATTAGTGCTAG,3.07 z-score
TTACATCTCAGACTGGATTAGTGCTAG,0.0479 z-score
TGAGGACTGGACTTTCGGTTAGTGCTA,2.42 z-score
GTAGGTATCCTTATCCTTTAGTGCTAG,0.273 z-score
TAGAAATTTTTTTTCTAACTGTGCTAG,-0.105 z-score
GACGACTTCGGGTATCGAGACGTGCTA,0.73 z-score
TTAGGTTTCGACTCTCGGTTAGTGCTA,9.4 z-score
GACGATCTAAGTCTCGAGACGTGCTAG,0.479 z-score
ATAGAACTGGGGACTGGATTAGTGCTA,-0.0203 z-score
TCTGTTTTTGCTTTCTTTTTGTGCTAG,2.11 z-score
TTAGGTTACCTTCTCCTTTAGTGCTAG,0.122 z-score
GTAGGTCTCGGTATCGGTTAGTGCTAG,7.04 z-score
GACGATATCGGGACTGGAAACGTGCTA,0.0789 z-score
TTAGGTTTCCTGTTCCTTTAGTGCTAG,1.51 z-score
TTAGATATCAGTTTAGATTAGTGCTAG,0.466 z-score
TGCTTTCTCTTTCATTGCTGCGTGCTA,3.18 z-score

# Series 3
# Target: RING finger protein unkempt homolog, zinc fingers 1-6, GST-SBP tag (UNK, Homo sapiens, UniProt Q9C0B0, residues 30-357)
# Technique: RNA Bind-n-Seq
# Molecule type: RNA
# Medium: in vitro
# Tested at: not given
# Setting: RNA with constant flanks, human-mouse chimeric sites, ends assumed
# Baseline: input RNA pool
# Direction: higher = stronger binding
# Shared flanks, not repeated: GGGAGUUCUACAGUCCGACGAUC … CAACAGAGGAUUGAGCAUCA
# Target sequence (chain): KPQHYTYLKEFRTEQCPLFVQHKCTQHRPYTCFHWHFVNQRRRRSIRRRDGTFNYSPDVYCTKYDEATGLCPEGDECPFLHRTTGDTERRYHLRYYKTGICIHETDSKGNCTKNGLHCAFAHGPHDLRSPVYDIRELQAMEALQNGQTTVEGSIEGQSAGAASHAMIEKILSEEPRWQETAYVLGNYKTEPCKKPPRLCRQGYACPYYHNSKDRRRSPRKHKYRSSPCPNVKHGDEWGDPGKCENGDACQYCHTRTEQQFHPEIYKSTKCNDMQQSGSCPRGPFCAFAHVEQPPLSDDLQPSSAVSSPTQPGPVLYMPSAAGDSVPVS
Oligonucleotide,bound/input enrichment [ratio]
GGCUGCUGGUGACUGUCCUGGAGUGGCUGGAGUUCCCGCCGGAGCGCGCGCAGGUUAAUUUUAGAAAAUGCCAAGUAGGAAGUUUGUUGAGGGUGAAGUGGUCAGAGGCCGAUGGCCUGG,4.73
UGACAAGGGCACUGCAGAGCCAUGCCUUUCCUUGACAUACAGAAAAAGCUGGGCAUCAGCCUGGACCGGCACUUUAUGUUCCUAAGCGGUGAACAGCCCUAUAAGAAGGCUGGUCGAUGC,0.0907
AGAGAAAUGAGAAAGAAUCUCACACAAGAAGAGAUGCAAAGAAUGUCUACUAGAGUCCUUUUGGCGACUCUUUCCAUUCCUAUUACUCCUGAGCGAACGGAUAUUGCUCGACUUUUGGAU,0.105
CUGGCCUGGCCCUCCCCAGGGGCCUCCUUUCGUAUAGUAACUGUCAGUGCAUCAGAUACUUUCAGCUCCAAGUCCUGACUGGGUGGGGCACCCAUUUCAGGCAGAAGGUUUUGGUACCCU,0.238
CAGCCUCAGAGCCCUGACUUCCUGGAUAUUACCAACCCUAAAGCGGUAUUAGAAAAUGCAUUGAGAAACUUCGCCUGUCUGACGACUGGAGAUGUGAUUGCUAUCAACUACAAUGAGAAG,0.519
ACUCUUGACUCUUUCCAUCCUCUUCCUUUCCCUCUUGAUAUUCAAGGCCAUGAAUCCCAAAAUAGCUGUCUUAGUGGGAGGCUAGCAAACAGAGGUGGAAUAAAUCCACCCCAGUGUCUC,1.13
UAAGUUAUUUUGUACAGCUUUGUAAAUUCUUAACAUUUUUAUAUUGCCAUGUUUAUUUUGUUUGGGUGCUUUAUUAAAUUAAGUACAUAGCUAAGGUAAUGAACAUCUUUUUCAGUAAUU,0.985
CUGUGACCACAAGAUCCUACCUGAGUGUUCAGAUGGGUUGACUCCCUCUCCUUGCCUGAACCCCCCCCCACUGCCCCCCCAUCCCCCAGUGUCGGCUAUUCUCUGGUCUCUGCACGGUUC,1.32
UAUAAUAAUCAUGAAAUUCGUUCUGGAAAGCACAUUGGUGUCUGCAUCUCAGUUGCCAACAAUAGGCUUUUUGUGGGCUCGAUUCCUAAGAGUAAAACCAAGGAACAGAUUCUUGAGGAA,0.602
ACCAUUUUCGCGGUUCAGGCUUUGUGUGUAGUUCACUUACGGUAUUAAAUUAUUAUUGCCCUUAGUUUAUAAUAAGGAUAAUUGCAUUUAAAGAGGUUACUGAAUGUUACUCUGAAACUU,0.749
ACUCAGAGAUCCACCUCCCAAAGUGCUGGGAGUAAAGGUGUGGCCACUCAAUUCUCCUUCAUAGACAUAUAUUUUUUUUAAUAUGAAUCUUCCUGUUCGUCCAGGGAAGAAAGAUUUGUU,13.5

# Series 4
# Target: Centromere-binding protein 1, full length, His-tagged (CBF1, Saccharomyces cerevisiae, UniProt P17106, residues 1-351)
# UniProt P17106, sequence (whole entry, looked up): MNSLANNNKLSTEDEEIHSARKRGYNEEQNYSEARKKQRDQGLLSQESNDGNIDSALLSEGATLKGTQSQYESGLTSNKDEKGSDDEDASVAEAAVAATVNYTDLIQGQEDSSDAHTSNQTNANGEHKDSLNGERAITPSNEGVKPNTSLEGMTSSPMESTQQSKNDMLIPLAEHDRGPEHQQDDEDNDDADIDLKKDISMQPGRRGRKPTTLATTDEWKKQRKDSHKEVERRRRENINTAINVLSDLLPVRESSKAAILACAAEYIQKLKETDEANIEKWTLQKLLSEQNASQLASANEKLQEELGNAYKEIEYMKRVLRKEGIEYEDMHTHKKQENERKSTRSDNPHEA
# Technique: competition protein-binding microarray
# Molecule type: double-stranded DNA, one strand shown
# Medium: in vitro
# Tested at: 2 µM
# Setting: whole 60-bp probe, lowest competitor level
# Together with: Pho4 competitor, 0.05 µM
# Direction: higher = stronger binding
# Shared flanks, not repeated: … GTCTTGATTCGCTTGACGCTGCTG
Oligonucleotide,fluorescence intensity [a.u.]
TGCGCAACAACTTGTCACTCAACTTTATGTCTAGAA,80.6
ACTAATGAATTGGTCCACGTTTAGCTTACTTCCCGA,86.8
CGGGGTTAAGTTTGGGGAGTGGGTGGCTTGCAGCAG,86.9
CCCCGTAGGGCCCGACACGTCTAAAATATTAACCTC,67.6
TTAATGAGTAATCCGCACGTTTTTAATCTAGCTAAT,126
ATTTTGCTAATTAAAGGCGTGCCGAAGCGGCGACTA,82.4
AAAGCGGTAATTTGTCACTGAACTTCACATATCTAT,89.8
CCCACCGTAAGGAAACACGTGGTGATGGTGGTATAT,1030
GACGAAACCTCTTCACGTGTGCAGGACTTGAAAATC,856
AGACTGTATTTTTGTCACCTGTCGCGGCAACTTACT,189
CATACCCAACCTTGCATCGTGGGTGAAGATATTTGT,74.3
AGGTTGATGAAGAAGGACGTGCTTTCCCAGTTGAGT,70.2
GTAAATGAGGCCCATCACGCTGACTCACTCGGTCCG,103
CATGCCCTTTCCTCCCTCGTGGGACCTCCCAGGAGA,52
GTCTTGTCTCATTTTCACGTGGTGTTCCCCACTTCA,840
CGGGGTTAAGTTTTTCACGTGTAATGCTTGCAGCAG,603
CTTTCCCGATCTTTTCACGTGGATTTAGCACATTTG,661
CTTCTGTAAATTTGCTAGGTGGGTGGACGCGCCCCG,86.8
CGGGGTTAAGTTTGTCTCGTGGGTGGCTTGCAGCAG,94.7
GATTCAAGCTTCTTTTGCGTGATGGAATTTAGGATT,90.4
CTTTCCCGATCTTGACACGTGTTTTTAGCACATTTG,1750
CGCAATTTCCTTTATCGAACATATTGGGTAAACAAC,69.8

# Some of these lines once more (series 4):
Oligonucleotide,fluorescence intensity [a.u.]
GTCTTGTCTCATTTTCACGTGGTGTTCCCCACTTCA,840
CGGGGTTAAGTTTTTCACGTGTAATGCTTGCAGCAG,603
CTTTCCCGATCTTTTCACGTGGATTTAGCACATTTG,661
CTTCTGTAAATTTGCTAGGTGGGTGGACGCGCCCCG,86.8
CGGGGTTAAGTTTGTCTCGTGGGTGGCTTGCAGCAG,94.7
GATTCAAGCTTCTTTTGCGTGATGGAATTTAGGATT,90.4
CTTTCCCGATCTTGACACGTGTTTTTAGCACATTTG,1750
CGCAATTTCCTTTATCGAACATATTGGGTAAACAAC,69.8
